Published values of several laboratories.
Lines come from different studies, so protocols differ.
Effect on: metabolic stability

SMILES = CN(C)CCCNC(=O)C[C@H](Cc1ccc(F)cc1)NC(=O)[C@@H](Cc1ccc(Cl)cc1Cl)NC(=O)[C@H](N)Cc1ccccc1C#N; test system = CD-1 mouse, liver microsomes; setting = 1 µM; endpoint = microsomal CLint; result = 17 µL/min/mg
SMILES = COc1cc2c(cc1NC(=O)c1cncn1C)C[C@H]1[C@H]3CCCC[C@@]23CCN1C; test system = mouse, liver microsomes; endpoint = microsomal CLint; result = 48.3 µL/min/mg
SMILES = C[C@@H]1COCCN1c1nc(NCc2cccnc2C(F)(F)F)c2cccnc2n1; test system = mouse, hepatocytes; endpoint = hepatocyte CLint; result = 8.8 µL/min/10⁶ cells
SMILES = O=C(CN1CN(c2ccccc2)C2(CCN(C(=O)c3cnc4[nH]ncc4c3)CC2)C1=O)NCC(F)(F)F; test system = mouse, liver microsomes; endpoint = microsomal CLint; result = 97 µL/min/mg
SMILES = C#CCCCNC(=O)CC(Cc1ccc(F)cc1)NC(=O)C(Cc1ccc(Cl)cc1Cl)NC(=O)C(N)Cc1ccccc1C#N (centres unmarked); test system = CD-1 mouse, liver microsomes; setting = 1 µM; endpoint = microsomal CLint; result = 63 µL/min/mg
SMILES = NC1CCN(C(=O)Oc2ccc(C3CCCC4(C3)OOC3(O4)C4CC5CC(C4)CC3C5)cc2)CC1 (racemic); test system = mouse, liver microsomes; endpoint = microsomal CLint; result = 14.1 µL/min/mg
SMILES = O=C(CN1C(=O)C2(CCN(C(=O)c3ccc4[nH]ncc4n3)CC2)c2c(Br)cccc21)NCC(F)(F)F; test system = mouse, liver microsomes; endpoint = microsomal CLint; result = 10 µL/min/mg
SMILES = CCc1nnc(-c2c(OC)cc(-c3cnc4cc(-c5cnn(C)c5)ccn34)cc2OC)o1; test system = mouse, liver microsomes; endpoint = microsomal CLint; result = < 9.6 µL/min/mg

For quick reference, copied from above:
SMILES = NC1CCN(C(=O)Oc2ccc(C3CCCC4(C3)OOC3(O4)C4CC5CC(C4)CC3C5)cc2)CC1 (racemic); test system = mouse, liver microsomes; endpoint = microsomal CLint; result = 14.1 µL/min/mg
